Published values of several laboratories.
Parts stem from different laboratories: compare values within a part only.

Study 1 — method: RNA Bind-n-Seq; form: RNA; sample: in vitro; concentration: 200 nM; notes: whole 134-nt RNA, ends assumed; together with: 150 mM LiCl; relative to: input library; reading: higher = stronger binding; library: 7-deaza-guanosine replaces G
Target: Fragile X messenger ribonucleoprotein 1, C-terminal low-complexity region (Fmr1, Mus musculus, UniProt P35922)
Shared flanks, not repeated: GGGAGUUCUACAGUCCGACGAUC … UGGAAUUCUCGGGUGUCAAGG
| Sequence | log2 enrichment |
| --- | --- |
| GUCCUGUGCUACACAUCGUAUGUACCGAAUCGGCCCCCCGGCCCCCCGGGCCCCCCGGGAAAGUAUUAUGUUACGCCGUUCGGAUCUGCA | 1.21 |
| UCCUGUGCUACACAUCGUAUGUACCGAAUCAAACCCCCAAAUUUUUUUAAACCCCCAAAAAAGUAUUAUGUUACGCCGUUCGGAUCUGCA | 1.61 |
| GCAGGAAGUAAAAACAAAUGGAAAUGCUUCGGAUAAAAGCAGGGGUGGGGGUUGCUAAGGAAAGGGUGGGAUGGGAGUGGGUAAAGAGUU | 1.75 |
| ACCAUGCAGGUGGGCAUCUUUGGGAAGUGGGGCAAGGGGGGGAUAGGGAGGGGGGUAACACUUUGGGAACAGGUGGUCCCAGGCCGUUUC | 1.25 |
| UGGACAGGUUGCUGGACCCCGCCAACAGAGCCCACCUGGGCCUGGAGGAGCAGCUGAGAGAGCUGCUGGACAUGCUCGACCUCACCUGCG | -1.31 |
| UAACUUUAGAGGAGGAUCUGAUGGAUAUGGCAGUGGACGUGGAUUUGGGGAUGGCUAUAAUGGGUAUGGAGGAGGACCUGGAGGUGACAA | 0.748 |
| CCUCAAGUCCUGUGCUACACAUCGUAUGUACCGAAUCGGGGUGGGGUGGUGGAAAGUAUUAUGUUACGCCGUUCGGAUCUGCACUUCCAG | -0.63 |
| UCCUGUGCUACACAUCGUAUGUACCGAAUCGGCCCCCCGGGGCCCCCCGGGCCCCCCGGGAAAGUAUUAUGUUACGCCGUUCGGAUCUGC | -3.34 |
| CUCAAGUCCUGUGCUACACAUCGUAUGUACCGAAUCGGUUGGGUUGGUUGGGGAAAGUAUUAUGUUACGCCGUUCGGAUCUGCACUUCCA | -0.36 |
| GCAGGAAGUAAAAACAAAUGGAAAUGCUUCGGAUAGUGGCAGGGGUGGGGGUUGCUAAGAAAAGGGUGGGAUGGGAGUGGGUAAAGAGUU | 1.66 |
| ACCAUGCAGGUGGGCAUCUUUGGGAAGUGGAAAAAGGGGGGGAUAGGGAGGGGGGUAACACUUUGGGAACAGGUGGUCCCAGGUCGUUUC | 1.37 |

Study 2 — method: RNA Bind-n-Seq; form: RNA; sample: in vitro; concentration: 365 nM; relative to: no-protein control; reading: higher = stronger binding
Target: RNA binding protein fox-1 homolog 2, RRM domain, GST-SBP tag (RBFOX2, Homo sapiens, UniProt O43251-10, residues 100-194)
Notes: natural RNA segment, single round, ends assumed
Shared flanks, not repeated: GGGAGUUCUACAGUCCGACGAUC … UGGAAUUCUCGGGUGCCAA
Target sequence (chain): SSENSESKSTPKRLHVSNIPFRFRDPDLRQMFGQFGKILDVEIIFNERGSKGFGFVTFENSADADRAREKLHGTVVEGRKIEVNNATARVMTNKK
| Sequence | RBNS enrichment (R) |
| --- | --- |
| AGUCUGCCCCCAUUUCCUUUUCCUAUAAUCCUGCCUUCCAGGGUUCCCCCCUCCCUGAAAUUUGUCCUUCAGGAGUAACCCCUACCCACCCCUGUCCCUGUGAGUCUGGA | 1.1 |
| GCCCUAUACAUUUGCUCUUCCUAUAUAAGUUGGUGAACUUUCCUAUAUAACAACAUAGAAUAACAACAACAGAAAAUGAUAAGUACAGAUAAAUGGUUAAUUGUUGGGGC | 0.229 |
| ACUCCAGCUGGGGGCGCCACAGCACCCACCACCUGCCGCCUUCAGACUCUCGGGGCUGGUGCCAGUGCCCCAGGGGCCUCCUGGGCCACGGGCUGGAGGGGCUGCCCAGG | 0.441 |
| UUAAACAAGGUGAGGGAGAGUAGCUGCCUCCGUGUCACCUUGUCUGCCUGGGUCUCUGAGGAAGGAGGGGUCCUGCUUUCUCACCCAGCUCACCCCUUUGGUGACUCAGA | 0.375 |
| ACUGCCUACAUUUGCGUUGCUUUCUACAUAGAGACUUGUAUAAUAGUAUUAAUAGUAGCUCAUUCUCUCUAAAAAUUUACUGCCCACUGAUAGGAUGUUUUGUUUCCUUG | 0.501 |
| GCCAUCUUCUGUUACCAUAUGGUGUUGAAUGCAAGUUUAAUUACCAUGGAGAUUGUUUUACAAACUUUUGAUGUGGUCAAGUUCAGUUUUAGAAAAGGGAGUCUGUUCCA | 0.308 |
| GAGUAAAAAAAAAAUCUUCUGCUGCACAUUUUGUUUAAGUGUUACUGUUUCUGCCUGUUAAUGCUGGGAACACAAAUAGUGCAAUUUGUGCAAUUGGAGAAUCUUGCCUU | 0.647 |
| AGCCAGGCUGCCGUGGUGUCAUUUCUGUCAUCCGUGCUCUGUUUCCUUUUGGAGUUUCUUCUCCACAUUAUCUUUGUUCCUGGGGAAUAAAAACUACCAUUGGACCUAGA | 0.229 |
| AUUGGUUUCAGAAAGAAUCUUAGCUACCUAGAAUUUACAGUCUCUGUUUCAUGGCAACACUGGAUAAUGGCUUUGUGAAAUUUAAAAAAUUUUUGUAGCGACUGUAAACA | 0.418 |
| CUGAGCUCUACCCAUGAGGACCUCUACUCCCAACCCCACAGCCUCUCCAAGGACCCAGGCGCCAGCAGCCCCAGGACACAGGGGACUCAGUGUGUGGGACUUGGUCACUC | 0.397 |
| GUGUUCUGUGUCCCUUGCAUGUGUGCGUGUUAGAGUGAGCGCGUAUGCAUCAACUCAUUGGGCUCUUGGCUGCUCACAAGGCAAAUUUGACUUGGAAAGACUUUCAUCUC | 2.42 |
| AGACGGUGGGAUGGGAGAAGAGAAGAGUGCGCUGUCCGAGGGCUGACCGAAUGGCUGGGUUUAGUAAAUAAAACACUAAGCAUGACGGGCUCCCGCCUCUUGCCGCUCUG | 1.04 |

Study 3 — method: protein binding microarray; form: double-stranded DNA, one strand shown; sample: in vitro; concentration: not given; relative to: not given; reading: higher = stronger binding
Target: Histone acetyltransferase KAT6A, winged helix 1, GST fusion (KAT6A, Homo sapiens, UniProt Q92794, residues 1-85)
Notes: 8-mer, flanks averaged, mean of 2 arrays, mostly near background
Target sequence (chain): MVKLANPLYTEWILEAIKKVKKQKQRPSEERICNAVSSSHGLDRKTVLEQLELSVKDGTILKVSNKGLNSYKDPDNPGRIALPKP
| Sequence | E-score |
| --- | --- |
| GTATGGCA | 0.0213 |
| AACCCGAT | 0.0777 |
| ATTCTCGA | -0.116 |
| CCGACGGA | 0.462 |
| ACCCATTG | -0.0721 |
| GGGCGAAC | 0.0409 |
| GAGAATTA | -0.177 |
| CGAGTTAG | -0.062 |
| AAAGTGGG | -0.162 |
| AAGGTACT | -0.0481 |
| ATGGCGCG | 0.287 |
| AGGACGTA | -0.0723 |
| GCAACACC | 0.111 |
| ACCGACAG | 0.206 |
| ACGTCACG | 0.122 |
| GGCCGGTA | 0.276 |
| ATTCGGAG | -0.158 |
| AAATTGGG | -0.269 |
| AGGGCTGA | -0.211 |
| CCCTCCAC | -0.157 |
| ATGATCAA | -0.0203 |

Study 4 — method: protein-binding microarray; form: double-stranded DNA, one strand shown; sample: in vitro; concentration: 940 nM top; notes: 60-bp whole probe; together with: salmon DNA 0.4 mg/ml; relative to: random background probes; reading: higher = stronger binding; shared flanks, not repeated: GCCTAGCAC … GTCTTGATTCGCTTGACGCTGCTG
Target: Interferon regulatory factor 5, full length, phosphomimetic (IRF5, Homo sapiens, UniProt Q13568-2, residues 1-514, S451D/S453D/S456D/S462D)
| Sequence | fitted relative affinity |
| --- | --- |
| TCATGACACCGATTTCATACTGTGCTA | -0.0697 z-score |
| GTGGGAAACCGGAAAGGCAAAGTGCTA | -0.509 z-score |
| TCATGTTTCTAATATTCTACTGTGCTA | 0.934 z-score |
| TTAGGACTGCGTTTCGGTTAGTGCTAG | 2.48 z-score |
| TCAGAATTACCTCTGGAACTGTGCTAG | -0.447 z-score |
| TTAGGTTTGCTACTGCTTTAGTGCTAG | -0.225 z-score |
| GACGGTTTCCTACTGCCGACGTGCTAG | 1.19 z-score |
| TCTTTTTGCACTCTCTACATGTGCTAG | 1.91 z-score |
| GACGGTATCGGTTTTGGGACGTGCTAG | 7.65 z-score |
| GACGGACTGCTCCTGCTGACGTGCTAG | -0.718 z-score |
| TCAGATTTTTAGTTAGAACTGTGCTAG | 0.29 z-score |
| GAAGATCTCAGACTGGAGACGTGCTAG | -0.614 z-score |
| GGTCCTCTAGGAATGTAACTGTGCTAG | -0.231 z-score |
| TCAGCTTCCTCTTTCTCACTGTGCTAG | 1.38 z-score |
| TTATATTTCGGGTATCGATTAGTGCTA | 3.31 z-score |
| TTAGATTTCGGGACTTGATTAGTGCTA | 0.414 z-score |
| GTGTGTTTGAGTCTTCTCCTGTGCTAG | -0.0371 z-score |
| TTAGAAATCAGACTGGATTAGTGCTAG | -0.478 z-score |
| GTCGGACTGGGGACTGGGGACGTGCTA | 0.0363 z-score |
| TTAGGTTTCATTTCCCTTTAGTGCTAG | 6.46 z-score |
| TCAGTATTTTTTCTGAAACTGTGCTAG | 0.591 z-score |
| GACGACTTCAGTTTCGAGACGTGCTAG | 4.51 z-score |
| GAGGGACTGCTACTGCTGACGTGCTAG | -0.604 z-score |
| TCAATTATATCTGTGTTACTGTGCTAG | 0.937 z-score |
| ATTGGTTGAACATGAACTTCGTGCTAG | -0.41 z-score |

For quick reference, copied from above (study 4):
| Sequence | fitted relative affinity |
| --- | --- |
| TTAGATTTCGGGACTTGATTAGTGCTA | 0.414 z-score |
| GTGTGTTTGAGTCTTCTCCTGTGCTAG | -0.0371 z-score |
| TTAGAAATCAGACTGGATTAGTGCTAG | -0.478 z-score |
| GTCGGACTGGGGACTGGGGACGTGCTA | 0.0363 z-score |
| TTAGGTTTCATTTCCCTTTAGTGCTAG | 6.46 z-score |
| TCAGTATTTTTTCTGAAACTGTGCTAG | 0.591 z-score |
| GACGACTTCAGTTTCGAGACGTGCTAG | 4.51 z-score |
| GAGGGACTGCTACTGCTGACGTGCTAG | -0.604 z-score |
| TCAATTATATCTGTGTTACTGTGCTAG | 0.937 z-score |
